Measured values gathered from unrelated publications.
Protocols differ between the studies behind these lines. Numbers after ± are the reported error.

SMILES | test | test system | setting | scale | quantity | value
[11CH3]n1c(=O)n(CCCO)c(=O)c2c1nc(Oc1cccc(OC(F)(F)F)c1)n2Cc1ccc(Cl)cc1 | ex vivo biodistribution | Sprague Dawley rat, blood | 60 min post injection | – | tracer uptake | 0.16 ± 0.01 %ID/g
CC(C)[C@H](NC(=O)[C@H](Cc1c[nH]c2ccccc12)NC(=O)[C@H](Cc1ccccc1)NC(=O)[C@@H](NC(=O)[C@@H](NC(=O)[C@H](CCCCN)NC(=O)[C@@H](N)CCCCN)C(C)C)C(C)C)C(=O)N[C@@H](CCCCN)C(=O)N[C@@H](Cc1ccccc1)C(=O)N[C@@H](CCCCN)C(N)=O | ELISA, measured: IL-5 | mouse, blood | intravenous, 500 µg/kg, 5 days | – | cytokine level | 40.8 ± 3.14 pg/mL
CC(C)[C@H](NC(=O)CNC(=O)[C@H](CCC(N)=O)NC(=O)[C@H](C)N)C(=O)O | – | human | 30 mg/kg single dose | – | subjects with moderate adverse events | 0%
CC[C@H](C)[C@@H]1NC(=O)[C@H](CCCCN)NC(=O)[C@H](CCCCN)NC(=O)[C@H](Cc2ccc(O)cc2)NC(=O)[C@H](CC(C)C)NC(=O)[C@@H]2CCCN2C(=O)[C@H](C)NC(=O)CNC(=O)CNC(=O)[C@H](CO)NC(=O)CNC(=O)CNC(=O)[C@H](CO)NC(=O)[C@H](CCC(=O)O)NC(=O)[C@H](CC(C)C)NC(=O)[C@H](CC(C)C)NC(=O)[C@H](CCCCN)NC(=O)[C@H](CCCCN)NC(=O)[C@H]([C@@H](C)CC)NC(=O)[C@H]([C@@H](C)CC)NC(=O)[C@H](CCCCN)NC(=O)[C@H](CCCCN)NC(=O)[C@H](Cc2ccc(O)cc2)NC(=O)[C@H](CC(C)C)NC(=O)[C@@H]2CCCN2C(=O)[C@H](C)NC(=O)CNC(=O)[C@@H](NC(=O)CN)CSSC[C@@H](C(=O)N[C@@H](CCC(=O)O)C(=O)N[C@@H](CO)C(N)=O)NC(=O)[C@H](CC(C)C)NC(=O)[C@H](CCCCN)NC(=O)[C@H](CCCCN)NC(=O)[C@H]([C@@H](C)CC)NC1=O | – | 25% human serum | 50 µM, 24 h | reference: 0 h control | remaining intact peptide | 52 ± 4.9%
CCc1c2c(nc3ccc(OC4OC(C(=O)O)C(O)C(O)C4O)cc13)-c1cc3c(c(=O)n1C2)COC(=O)C3(O)CC (stereo not drawn) | – | human patients, plasma | intravenous, 75 mg/m^2 of parent drug | – | Cmax | 45 ng/mL
CCN(CCCCOc1ccc(CCC(=O)N2CCC(Cc3ccccc3)CC2)cc1OC)Cc1ccccc1 | – | Kunming mice | oral, 14 days | – | dose without obvious toxicity | ≤ 1500 mg/kg
CCCCCCCC/C=C\CCCCCCCCOP(O)(O)=S.N | – | mouse, irradiated | subcutaneous, dose not given | reference: non-irradiated mice | half-life change | no effect
CC[C@H](C)[C@H](NC(=O)[C@H](C)NC(=O)[C@H](CCCCN)NC(=O)[C@H](CC(C)C)NC(=O)[C@H](Cc1ccccc1)NC(=O)[C@@H](N)CC[Se]C)C(=O)N[C@@H](CCCCN)C(=O)N[C@@H](CCCCN)C(=O)N[C@@H](Cc1ccccc1)C(=O)NCC(=O)N[C@@H](CCCCN)C(=O)N[C@@H](CCC(=O)O)C(=O)N[C@@H](Cc1ccccc1)C(=O)N[C@@H](CCCCN)C(=O)N[C@@H](CCCCN)C(=O)N[C@H](C(=O)NCC(=O)N[C@@H](C)C(=O)N[C@@H](CCCCN)C(=O)N[C@@H](CC(C)C)C(=O)N[C@@H](CCCCN)C(=O)O)[C@@H](C)CC | measured: selenium | mice, serum | intraperitoneal, 70 mg/kg | – | time to complete elimination | 10 min
COc1cc(NC(=O)C(=O)c2c(C)n(Cc3ccc(Cl)cc3)c3ccc(C)cc23)ccn1 | – | cynomolgus monkey, plasma | intravenous, 1 mg/kg | – | Vd | 6.45 L/kg
O=C(NCCCCCn1ccc2ccc(F)cc21)Oc1cccc(F)c1 | – | PBS with Triton X-100 | 20 µM, 60 min, pH 7.4 | – | parent remaining | > 95%
CC1=CC=c2ccc3c4c2[N]1[Re](=[C]=O)(=[C]=O)(=[C]=O)([C]#[N+]c1cc(C)cc(C)c1)[N]4C(C)=CC=3.O=S(=O)([O-])C(F)(F)F | – | PBS | 10 µM, air-equilibrated | – | luminescence lifetime | 1.1 µs
COc1cc(C(=O)NCCOCCOCCOCCNC(=O)c2ccc([18F])nc2)ccc1NC(=O)C1NC(CC(C)(C)C)C(C#N)(c2ccc(Cl)cc2F)C1c1cccc(Cl)c1F (stereo not drawn) | – | BALB/c mouse, plasma | 30 min | reference: plasma radioactivity | polar metabolites | ~41%
[2H]C([2H])([2H])C([2H])([2H])C([2H])([2H])OC(C(=O)OC1CCNCC1)(c1ccccc1)c1ccccc1 | – | healthy Japanese male subjects, plasma | oral, 8 mg once daily, day 16, fed, mean | – | Cmax | 86.4 ng/mL
O=C(C[P+]([Au-][Cl])(c1ccccc1)c1ccccc1)[O][Ti+2][O]C(=O)C[P+]([Au-][Cl])(c1ccccc1)c1ccccc1.c1cc[cH-]c1.c1cc[cH-]c1 | – | C57BL/6 mice, female | subcutaneous, once daily | – | lethal dose | 15 mg/kg/day
CC[C@H](C)C(=O)N1CCC(NC(=O)Nc2ccc(OC(F)(F)F)c(F)c2)CC1 | – | healthy volunteers | oral, 2 mg single dose | – | subjects with palpitations TEAE | 16.7%
[Cl-].[Cl][Ru-4]123([n+]4ccccc4-c4cc(-c5ccccc5)cc([n+]41)-c1cccc[n+]12)[n+]1ccc(-c2ccccc2)c2ccc4c(-c5ccccc5)cc[n+]3c4c21 | – | zebrafish embryos | 20 µM | – | toxicity | not toxic
CC(C)C[C@H](NC(=O)[C@H](CCCCN)NC(=O)[C@H](CCC(=O)O)NC(=O)[C@H](C)NC(=O)[C@@H](NC(=O)[C@H](CCCCN)NC(=O)[C@H](CC(=O)O)NC(=O)[C@H](Cc1ccc(O)cc1)NC(=O)[C@H](Cc1ccccc1)NC(=O)[C@H](C)NC(=O)[C@H](CCCCN)NC(=O)[C@H](CC(C)C)NC(=O)[C@H](Cc1c[nH]c2ccccc12)NC(=O)[C@@H](N)CC(=O)O)C(C)C)C(=O)N[C@@H](CCCCN)C(=O)N[C@@H](CCC(=O)O)C(=O)N[C@@H](C)C(=O)N[C@@H](Cc1ccccc1)C(=O)N1CCC[C@H]1C(=O)N[C@@H](CC(=O)O)C(=O)N[C@@H](Cc1c[nH]c2ccccc12)C(=O)N[C@@H](C)C(=O)N[C@@H](CCCCN)C(=O)N[C@@H](C)C(=O)N[C@@H](C)C(=O)N[C@@H](Cc1ccc(O)cc1)C(=O)N[C@@H](CC(=O)O)C(=O)N[C@@H](CCCCN)C(=O)N[C@@H](C)C(=O)N[C@@H](C)C(=O)N[C@@H](CCC(=O)O)C(=O)N[C@@H](CCCCN)C(=O)N[C@@H](C)C(=O)N[C@@H](CCCCN)C(=O)N[C@@H](CCC(=O)O)C(=O)N[C@@H](C)C(=O)N[C@@H](C)C(=O)O | – | cynomolgus monkey male, plasma | intravenous infusion, 8 mg/kg every other day, day 27 | – | Tmax | 0 h
CC(=O)OC1O[C@@H]2O[C@@]3(C)CC[C@H]4[C@H](C)CCC([C@H]1C)[C@@]24OO3 (stereo partly drawn) | – | Tg(fli1:EGFP) zebrafish embryos | 1.0 µg/mL, up to 48 hpf | – | dead embryos | 2 count
CCCCCCCCCCCCC(=O)O.O=C1CCCC2C3CCCN4CCCC(CN12)C34 (stereo not drawn) | electrical conductivity | water | 303.15 K, critical micelle concentration | – | standard entropy of micellization | 101 J/(mol·K)
CCNc1cc2[o+]c3cc(NCC)c(C)cc3c(-c3ccccc3C(=O)OCCOCC[18F])c2cc1C | PET | rat, heart | dose not given, 5 min p.i. | – | radioactivity concentration | 69 ± 5 kBq/cm³
CSCC[C@H](NC(=O)CNC(=O)[C@H](CCCCN)NC(=O)[C@H](CC(C)C)NC(=O)[C@@H]1CCCN1C(=O)[C@H](CO)NC(=O)[C@H](Cc1c[nH]cn1)NC(=O)[C@H](Cc1c[nH]c2ccccc12)NC(=O)[C@H](CCCNC(=N)N)NC(=O)[C@H](CC(C)C)NC(=O)[C@H](CCCNC(=N)N)NC(=O)[C@H](Cc1c[nH]c2ccccc12)NC(=O)[C@H](CS)NC(=O)CCCCCNC(=O)CN1CCN(CC(=O)O)CCN(CC(=O)O)CCN(CC(=O)O)CC1)C(=O)O [copper-64 labelled] | radio-HPLC | mouse serum | 2 h, 37 °C | – | intact tracer remaining | 91.9%
COC(=O)C[C@H](NC(=O)[C@H](C)NC(=O)[C@@H](NC(=O)[C@H](CC(=O)OC)NC(=O)[C@@H](NC(=O)c1ccc2ccccc2n1)C(C)C)C(C)C)C(=O)COc1c(F)cccc1F | – | Wistar rat pups, focal ischemia-reperfusion | dose not given, up to 48 h | – | body temperature and weight | no effect
CC(C)C[C@@H](/C=C/CC(=O)NC1CC(C)(C)N([O])C(C)(C)C1)NC(=O)OC(C)(C)C | metabolic stability | male mouse, liver microsomes | 1 h | – | compound remaining | 15%
CC(C)C[C@H](NC(=O)CN)C(=O)NCC(=O)N[C@@H](CCCCN)C(=O)N[C@@H](CC(C)C)C(=O)N[C@@H](CC(C)C)C(=O)N[C@@H](Cc1c[nH]cn1)C(=O)N[C@@H](C)C(=O)N[C@@H](C)C(=O)N[C@@H](CCCCN)C(=O)N[C@@H](CCCCN)C(=O)N[C@@H](CC(C)C)C(=O)NCC(=O)N[C@@H](CCCCN)C(=O)N[C@@H](C)C(=O)N[C@@H](Cc1c[nH]c2ccccc12)C(=O)N[C@@H](CC(C)C)C(=O)NCC(=O)N[C@@H](CCC(=O)O)C(=O)N[C@@H](CC(C)C)C(=O)N[C@@H](CC(C)C)C(=O)N[C@@H](C)C(=O)N[C@@H](C)C(=O)O | circular dichroism | phosphate buffer 10 mM | 1 to 5 µM, pH 7.5, approximate | – | helicity | ~10%

Repeated from above:
SMILES | test | test system | setting | scale | quantity | value
O=C(NCCCCCn1ccc2ccc(F)cc21)Oc1cccc(F)c1 | – | PBS with Triton X-100 | 20 µM, 60 min, pH 7.4 | – | parent remaining | > 95%
CC1=CC=c2ccc3c4c2[N]1[Re](=[C]=O)(=[C]=O)(=[C]=O)([C]#[N+]c1cc(C)cc(C)c1)[N]4C(C)=CC=3.O=S(=O)([O-])C(F)(F)F | – | PBS | 10 µM, air-equilibrated | – | luminescence lifetime | 1.1 µs
COc1cc(C(=O)NCCOCCOCCOCCNC(=O)c2ccc([18F])nc2)ccc1NC(=O)C1NC(CC(C)(C)C)C(C#N)(c2ccc(Cl)cc2F)C1c1cccc(Cl)c1F (stereo not drawn) | – | BALB/c mouse, plasma | 30 min | reference: plasma radioactivity | polar metabolites | ~41%
